Measured values collected from several papers.
Parts stem from different laboratories: compare values within a part only.

Sample 1 — technique: competition protein-binding microarray; form: double-stranded DNA, one strand shown; sample: in vitro; tested at: 2 µM; with: Cbf1 competitor, 0.05 µM; direction: higher = stronger binding; all sequences stand within: … GTCTTGATTCGCTTGACGCTGCTG
Target: Phosphate system positive regulatory protein PHO4, full length, GST-tagged (PHO4, Saccharomyces cerevisiae, UniProt P07270, residues 1-312)
Setting: whole 60-bp probe, lowest competitor level
Residues (chain): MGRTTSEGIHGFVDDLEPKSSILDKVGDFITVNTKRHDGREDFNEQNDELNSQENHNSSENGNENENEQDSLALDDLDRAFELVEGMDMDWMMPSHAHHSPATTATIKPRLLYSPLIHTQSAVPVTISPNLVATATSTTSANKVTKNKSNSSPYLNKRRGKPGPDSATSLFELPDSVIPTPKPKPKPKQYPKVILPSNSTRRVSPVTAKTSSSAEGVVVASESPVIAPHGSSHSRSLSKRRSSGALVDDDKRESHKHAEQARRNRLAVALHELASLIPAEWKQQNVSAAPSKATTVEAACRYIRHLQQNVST
| Oligonucleotide | fluorescence intensity [a.u.] |
| --- | --- |
| CTTTCCCGATCTTGTCTGGTGGGTGTAGCACATTTG | 4720 |
| CGTCCTAGTGATTGTCACAAGACTTCCATGAGGAAG | 4310 |
| AACTTGCAAGGCTGTCCCGTGTCCTTCCTAATGGGT | 7920 |
| TGCGCAACAACTTGTCACACGACTTTATGTCTAGAA | 5800 |
| TGCGCAACAACTTGTGAGGTGGGTGTATGTCTAGAA | 5010 |
| AAAGCGGTAATTTGGTGTGTGGGTGCAGATATCTAT | 5780 |
| TAACCCCCTCCTACCCACGCTATTCTTCAAATTCCG | 6470 |
| ACTTTTTCCACTACTCTCGTGGCCGGGAAGACCTGC | 10500 |
| GCAGCACCCAAGCTTCCCGTGTATCCATACCACCCT | 5720 |
| TTCCAGGACATTCACCATGTGCTTTTTTCCATAACA | 10500 |
| CGTCCTAGTGATTGCATTGTGGGTGCCATGAGGAAG | 7780 |
| CTGGGGATGTTTCCGCACATGAGGGGGGCAGAGGTT | 7270 |
| TATATTGTTTGTTTGCACGTTTGATAAGTCCCTTAG | 10100 |
| ACAACCCTTCCCTTACGCGTGGTCGCTCCCAGTCGA | 7290 |
| GGTCATTTCTGACAACACGTGTTTTCTGCCACTGCT | 17100 |
| TAAGGAAGGATATGGCACACGCTTGTGTTCAAGAAT | 8680 |
| CATACCCAACCTTGATGTGTGGGTGAAGATATTTGT | 5580 |
| GTTGACAAACCCGGCCACGTGACTCGAGCTTAGAAG | 15600 |
| AGGGTGGTATGGATACACGGGAAGCTTGGGTGCTGC | 5560 |
| CATACCCAACCTTGCGCGGTGGGTGAAGATATTTGT | 4290 |
| TGCTACTGCTGCTGTTGTGTGACAGGAAACGCGTTT | 4700 |
| TGGGGATGATGATAGTCCGTGACGGTTGCCAGGGAA | 4380 |
| TGCGAAAAGATTTCACACGTCAGTAAATCCGCGCAA | 4480 |
| GTGACGAAAACGGATGCCATGTTCCAGCACCAACTG | 5500 |
| AAATTACTAAGTTTTCACGTGCAGTACCCCGTATGA | 11600 |

Sample 2 — technique: universal PBM; form: double-stranded DNA, one strand shown; sample: in vitro; tested at: not given; direction: higher = stronger binding
Target: Sal-like protein 4, full length isoform B (SALL4, Homo sapiens, UniProt Q9UJQ4-2, residues 1-616)
Setting: 8-mer, flanks averaged, mean of replicates
| Oligonucleotide | E-score |
| --- | --- |
| ATAGCAAT | 0.294 |
| GGGGAGGA | -0.21 |
| AGTCCTTG | -0.112 |
| CCTGCCTC | -0.273 |
| GTCGAAGA | -0.0309 |
| GGGCAAAA | 0.00152 |
| ACAGGCCT | -0.0948 |
| AATACGTA | 0.277 |
| ACACGTAT | 0.134 |
| ATCAACCG | -0.104 |
| ATCTATCA | 0.233 |
| AAATGGGA | 0.0054 |
| TCGCAACA | -0.101 |
| ACAGATAA | 0.15 |
| CACAGCGA | -0.059 |
| AGCTGTAA | 0.0713 |
| CGCGGATC | -0.255 |
| ACAGATGC | 0.103 |
| AGCCCTCG | -0.206 |
| GTACCTTA | 0.105 |
| GCTTCAGA | -0.0479 |

Sample 3 — technique: protein binding microarray; form: double-stranded DNA, one strand shown; sample: in vitro; tested at: not given; relative to: not given; direction: higher = stronger binding
Target: Histone acetyltransferase KAT6A, winged helix 1, GST fusion (KAT6A, Homo sapiens, UniProt Q92794, residues 1-85)
Setting: 8-mer, flanks averaged, mean of 2 arrays, mostly near background
Residues (chain): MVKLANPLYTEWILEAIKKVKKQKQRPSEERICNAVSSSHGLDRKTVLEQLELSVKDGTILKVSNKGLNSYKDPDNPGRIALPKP
| Oligonucleotide | E-score |
| --- | --- |
| ACCCGAAC | 0.0412 |
| GACATCAA | -0.145 |
| CAGAGCTG | -0.125 |
| AAACCTTA | -0.0691 |
| GTCATACA | -0.0378 |
| AGCGGACC | 0.208 |
| AGATATCG | -0.122 |
| CGCATATA | 0.173 |
| CCCCTGCG | 0.117 |
| AATTAGGA | -0.0862 |
| AGACTCAA | -0.168 |
| AGTCCCAG | -0.0748 |
| AGACGACG | 0.113 |
| GTATCCGA | 0.14 |
| CAGTTAGA | -0.0674 |
| GTAATTAA | 0.0692 |
| ACTATACC | -0.0155 |
| CCCCTATA | -0.0336 |
| CGATAGCA | -0.0877 |
| GACCGATA | 0.073 |

Sample 4 — technique: protein-binding microarray; form: double-stranded DNA, one strand shown; sample: in vitro; tested at: 250 nM; setting: 60-bp whole probe; with: salmon DNA 0.4 mg/ml; relative to: random background probes; direction: higher = stronger binding; all sequences stand within: GCCTAGCAC … GTCTTGATTCGCTTGACGCTGCTG
Target: Interferon regulatory factor 5, full length, phosphomimetic (IRF5, Homo sapiens, UniProt Q13568-2, residues 1-514, K96S/S451D/S453D/S456D/S462D)
| Oligonucleotide | log fluorescence [z-score] |
| --- | --- |
| TTAGGACTGGGGTATCGGTTGGTGCTA | 1.57 |
| GACGGTATCGGGTTTCGGGTCGTGCTA | 5.43 |
| GACGGACTGGGGACCGGGGACGTGCTA | -0.7 |
| TATTTTATATGCTATGTACTGGTGCTA | 0.613 |
| TTGGGTATCCTACTGCTTTAGTGCTAG | -0.0467 |
| AACTCTCTAATTTTGAGACTGTGCTAG | 0.241 |
| TCATCTCTAATTTTGAGACTGTGCTAG | 0.328 |
| TCATCTATCTCTGTTTTACTGTGCTAG | 1.04 |
| ACCTAATTCACTATTACCAAGTGCTAG | 0.426 |
| TTAGGTATCCTTCTCCTGTAGTGCTAG | 0.363 |
| GACGAACTGGCGTTTCGAGACGTGCTA | 0.692 |
| TCACTGCTCCTCTTTTTTACTGTGCTA | 0.389 |
| TTAGGACTGCTTTTCTTTTAGTGCTAG | 0.5 |
| GACGATATCAGTTTCCAGACGTGCTAG | 1.7 |
| GACGAACTGGGGATTCGAGACGTGCTA | -0.623 |
| TCATGTGTACATCTCTCACTGTGCTAG | 0.119 |
| GACTGTTTCCTTCTCCTGACGTGCTAG | 0.966 |
| GACGATTTCCTTTCCCTGACGTGCTAG | 0.845 |
| TTAGGTCTCGGTATCTGTTAGTGCTAG | 1.26 |
| GACGGACTGGACTATCGCGACGTGCTA | -0.388 |
| CCCCATCTTGTTCCCAGAGAGTGCTAG | -0.183 |
| TCATTTCCAATTCTCTTACTGTGCTAG | 1.24 |
| GACGAACTGGGGTTTCGTGACGTGCTA | 0.263 |
| AGTATGTTCCCTATTTAAGGGTGCTAG | 0.307 |
| CTAGGTTTCCTTCTCCTTTAGTGCTAG | 0.955 |

Sample 5 — technique: RNA Bind-n-Seq; form: RNA; sample: in vitro; tested at: 365 nM; relative to: no-protein control; direction: higher = stronger binding
Target: RNA binding protein fox-1 homolog 2, RRM domain, GST-SBP tag (RBFOX2, Homo sapiens, UniProt O43251-10, residues 100-194)
Setting: natural RNA segment, single round, ends assumed
All sequences stand within: GGGAGUUCUACAGUCCGACGAUC … UGGAAUUCUCGGGUGCCAA
Target sequence (chain): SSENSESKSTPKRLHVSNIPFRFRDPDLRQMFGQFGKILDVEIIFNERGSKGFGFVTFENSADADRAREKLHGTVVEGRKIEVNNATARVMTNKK
| Oligonucleotide | RBNS enrichment (R) |
| --- | --- |
| UAAAUGGAAAUUGAAGACGUAAAGAAGAGCUUUCUUUUCCAAGAGACUCUGGUCUUGGCUAUGCUGAAGACUUUUUUAAAAAAUGGUUUUCAGGGAACCGUGAGGAUCUG | 0.376 |
| UAUUGUUAAACACCAAGUUUCACAUACAAGAGGUUUCUUUCAUUGUCAAAUUAAGAUAUGUAUUUGUAAGUUAUUGGUGGCUCAUUUAAACUGUAUCAUACAGUAAUGCC | 0.467 |
| AAGCCAAACGCUUCUGUCCUCUUUCCUUCUGCAUUAACCCUUUGCUGAUCCUCAGGGGCCACUCCCCCAACACCCCUGUACUUGGGUGAGGGAUGUUGGACAGAGCCUGU | 0.581 |
| AAAUGACGUUGGUUCUAGAGACUUAGAGACUUGGGCAAUAGGAUUUAACACUGCUAGGUAGCUCAGACAUAUCAGAAAAUCCAUAGUGGCCUGAGUUGUAAAUCCAAAAC | 0.356 |
| AAAAUCCCUGGAUAUGACAUAAAAAGGAUUUUGGCUUCUUUUUUGAAGUAUUUAAAAUUAAUCACCUUAGCUCUACCAUAUACUAGAUCUGUGACCGCUACACAAAUUGU | 0.469 |
| UUCAGGGAACCGUGAGGAUCUGGCAACAUGGCUCUGCUUGCAAUAUCCACUGAGCACUGUAAUACAUUUGACAGGAUGGCUGCAUGAAACUGUCCAGCAUUUUUCUGUCG | 1.47 |
| AGAUAACAAAACACAUUAACACAUUCUUACUGGAUAAUCCAAUUUGCCAAAACAUUUGGGCAUUGUGCCCACCACCUGCCCACACAUAGGAAGUCCACUUCAGUAAGUGC | 0.735 |
| GCCUCGCUCGUGAACUUCCUGUGGUAACACUUGGGAGCCUGGCCUUUUCCCAGUAUUUCCUGAAUUUGCCCGUGCAGGUGUGUGACCCUCCCUGAGCAUCUGGAGACACC | 1.16 |
| AAACUUGAAGAAAAAAGCCAAGGGCAAGUUAACUAAGAAGAAAACCCCAGUGAAGUCGGAGUCUUCCCCUGCUGAUCUGAGCCAAUCCGUAAGAGGACCCGUGAGGACAC | 0.388 |
| AGUGUAAAAUUUAAUUCAAAAUGGUGGCUAUAAUCACUACAGAUAAAUUUCAUACUCUUUUGUCUUUGGAGAUUCCAUUGUGGACAGUAAUACGCAGUUACAGGGUGUAG | 0.361 |
| AACAACCUUGACUUCCAUGGAGGAAGUGCUGGCCCCAAGGGGUCUGACACAAAGACGGGAAACCCAGUCGGCCUCUAGUUUUCUGCUGCUCUCAGGCAGCACAUCUUGCA | 2.06 |
| AUUAAUUUUAAAAGUCAAUCACUAAGAGCAUCGGCUUUGGGCCCUGAUGGGCAGGCAUUUCCCUGGAAAGGGGGUGAACUACCUACCUCUCCUCAAGACAGCCGAAGGGU | 0.227 |

Some of these lines once more (sample 1):
| Oligonucleotide | fluorescence intensity [a.u.] |
| --- | --- |
| TGCGCAACAACTTGTCACACGACTTTATGTCTAGAA | 5800 |
| TGCGCAACAACTTGTGAGGTGGGTGTATGTCTAGAA | 5010 |
| AAAGCGGTAATTTGGTGTGTGGGTGCAGATATCTAT | 5780 |
| TAACCCCCTCCTACCCACGCTATTCTTCAAATTCCG | 6470 |
| ACTTTTTCCACTACTCTCGTGGCCGGGAAGACCTGC | 10500 |
| GCAGCACCCAAGCTTCCCGTGTATCCATACCACCCT | 5720 |
| TTCCAGGACATTCACCATGTGCTTTTTTCCATAACA | 10500 |
| CGTCCTAGTGATTGCATTGTGGGTGCCATGAGGAAG | 7780 |
